Measured values collected from several papers.
A part holds a random share of what one study measured.

Sample 1
Target: Interferon regulatory factor 5, full length, phosphomimetic (IRF5, Homo sapiens, UniProt Q13568-2, residues 1-514, K96S/S451D/S453D/S456D/S462D)
Technique: protein-binding microarray
Form: double-stranded DNA, one strand shown
Medium: in vitro
Concentration: 250 nM
Notes: 60-bp whole probe
With: salmon DNA 0.4 mg/ml
Relative to: random background probes
Direction: higher = stronger binding
Constant ends, left off below: GCCTAGCAC … GTCTTGATTCGCTTGACGCTGCTG
With `TTAGATATCAGTTCCGATTAGTGCTAG` the log fluorescence was 2.19 z-score.
With `TTAGGTATACTTATCCTTTAGTGCTAG` the log fluorescence was 0.0539 z-score.
For `GACGGTCTACTTCTCCTGACGTGCTAG`, the log fluorescence was -0.151 z-score.
For `CTAATTTTCAATTCCTGAAAGTGCTAG`, the log fluorescence was 2.2 z-score.
The log fluorescence of `GACGGGATCGGGTTTCGGGACGTGCTA` is reported as 1.82 z-score.
`TTAGAACTCAGTCTCGATTAGTGCTAG` has a log fluorescence of 0.675 z-score.
For `GACGGTTTCCGTATCGGGACGTGCTAG`, the log fluorescence was 2.44 z-score.
The log fluorescence of `TTAGGTCCCCTACTGCTTTAGTGCTAG` is reported as -0.31 z-score.
With `GACGGTTTCGACACTGGGCACGTGCTA` the log fluorescence was 4.7 z-score.
With `GACGACATCGGGACTGGAGACGTGCTA` the log fluorescence was -0.239 z-score.
The log fluorescence of `GACGAGCTCAGTATCGAGACGTGCTAG` is reported as 1.73 z-score.
`GACGGTCGCCTTATCCTGACGTGCTAG` has a log fluorescence of -0.0736 z-score.
For `GACGGTTTCCTTTTCATGACGTGCTAG`, the log fluorescence was 1.31 z-score.
The log fluorescence of `GACGGTACCGGACTGGGGACGTGCTAG` is reported as -0.444 z-score.
The log fluorescence of `TTAGAACTGGGGTTTCGATGAGTGCTA` is reported as 3.78 z-score.
With `TCAACCATCTCATATAAAACTGTGCTA` the log fluorescence was 0.782 z-score.
`TTCGGTTTCGACACTGGGTTAGTGCTA` gave a log fluorescence of 7.37 z-score.
With `TTAGGTTTCGGTCTCGGTTGGTGCTAG` the log fluorescence was 10.3 z-score.
With `GACGATTTGAGTTTCGAGACGTGCTAG` the log fluorescence was 4.68 z-score.
For `GAAGGTATCGGGACTGGGGACGTGCTA`, the log fluorescence was 0.942 z-score.
`TTAGGTTTCGGCTTCGGTTAGTGCTAG` has a log fluorescence of 7.87 z-score.
With `TGGTATTTTTTTGTAATCGAGTGCTAG` the log fluorescence was 0.735 z-score.
The log fluorescence of `TTAGGTCTCCTACTGCTATAGTGCTAG` is reported as -0.175 z-score.

Sample 2
Target: RNA binding protein fox-1 homolog 2, RRM domain, GST-SBP tag (RBFOX2, Homo sapiens, UniProt O43251-10, residues 100-194)
Technique: RNA Bind-n-Seq
Form: RNA
Medium: in vitro
Concentration: 365 nM
Notes: natural RNA segment, single round, ends assumed
Relative to: no-protein control
Direction: higher = stronger binding
Residues (chain): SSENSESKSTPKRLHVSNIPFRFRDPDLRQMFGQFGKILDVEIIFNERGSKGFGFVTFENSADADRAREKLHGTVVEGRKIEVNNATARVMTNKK
For `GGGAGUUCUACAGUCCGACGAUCCUGGCCUCAAACUUAGAGAUCUGCCUGACUCUGCCUUUGAGGGCUGGGACGAAUGCCACCACUGCCCAACUAAGAUUCCAUUAAAAAAAAAAAAAGUUCAAGAUAAUUAAUGGAAUUCUCGGGUGCCAA`, “RBNS enrichment (R)” read 1.4.
`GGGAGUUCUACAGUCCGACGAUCCCCAGUGGCUGCCAUGGUCCUCUUCAGGCUCAGAGAUGGGUCUAGCCCUGGCCUUGCUCUGAUCAGCCUGCUCCUGGGGCAUGGGUGCUCCCGCUUCUGCUCUGCUUGGGUGGAAUUCUCGGGUGCCAA`: “RBNS enrichment (R)” 0.279.
`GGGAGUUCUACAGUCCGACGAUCGCAGGUCUCAGGAUCGGGGAUAACAUCGCUCCCACCCUGCUCAUUUAGAGAUGGGAAACAAGCAAGAGCUUGACUUGCCUCCCAUCCCUCAGCCUGUCUGUGGCAGAGCCUGGAAUUCUCGGGUGCCAA`: “RBNS enrichment (R)” 0.894.
Under “RBNS enrichment (R)”, `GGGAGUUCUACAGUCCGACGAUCGUGUCUGCCUCUGGCUGCUGGGAGAAGCUGUUUUUCAGUUUCAGAAGCAGGCAGGACAAAGGCCAGGACUGUGGUUUGGGAGGCAUUUGGCCCUGGAAGGUCCUGGCACAUGGAAUUCUCGGGUGCCAA` is recorded as 0.71.
Under “RBNS enrichment (R)”, `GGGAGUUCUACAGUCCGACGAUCAAAGAGAUUCUUACUAUUACUGGAGAAUAAAUCAUUUAUUUACAUGUGAUUGUGAUUCAUCAUCCCUUAAUUAAAUAUCAAAUUAUAUUUGUGUGAAAAUGUGACAAACAUGGAAUUCUCGGGUGCCAA` is recorded as 0.387.
`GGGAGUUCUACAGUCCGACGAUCAACCAAGCUGGGUCUAUAAGGAAUUGCACAUGAGAUGGCACACAUAUUUAUGCUGUCUGAAGGUCACGAUCAUGUUACCAUAUCAAGCUGAAAAUGUCACCACUAUCUGGUGGAAUUCUCGGGUGCCAA` — result for “RBNS enrichment (R)”: 0.278.
`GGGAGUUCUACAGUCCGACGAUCGCCUUUCUCCCCUCUGCUUCCUCAUUACUUUUGUCCUCCCUGGGAGCGUUCGCGCUCUGGGUCACUGGAUUGUUUCGUGUUUAUGUGUGAUUGUACCAAGGAACUUAGCCUGGAAUUCUCGGGUGCCAA` — result for “RBNS enrichment (R)”: 0.865.
`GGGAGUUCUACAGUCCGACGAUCGUAUGUAUGUUUCUGCCCACUAAUUUUGAGCAGCCAUAUUAUGAAUUAAAUCGUCACAGCCAAGUAAUAACCCAAGAAUGGUAUGAGUUUCAUGUGUAAUAGCUCAAAUGUGGAAUUCUCGGGUGCCAA` — result for “RBNS enrichment (R)”: 0.389.
`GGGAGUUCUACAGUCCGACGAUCCUUGGAACACCUUGGGGUCCCUCCACCCCACAGAACCUUCAACCCAGUGGGUCUGGGAUAUGGCUGCCCAGGAGACAGACCACUUGCCACGCUGUUGUAAAAACCCAAGUUGGAAUUCUCGGGUGCCAA` — result for “RBNS enrichment (R)”: 0.489.
Under “RBNS enrichment (R)”, `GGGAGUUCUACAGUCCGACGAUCUACUUUGUGAAUUUGUUUCUUUGAAUUUUCAUUUUUCAUUUAGUUUUCCUUGCAUACAAAUAAGCAUAUAAAAUGGCAACAAACUGCACAUGAUUUCACAAAUAUUAAAAUGGAAUUCUCGGGUGCCAA` is recorded as 1.37.
For `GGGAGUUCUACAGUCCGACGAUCGGCAAGGAUUUGCCAAAAAUGUUCUGGGGGCCCAGCAAAUGCAGGAGCCGACCUGGGGCUGCACAUCCCUGCCCAUCCCCAGAAAGACUGUUCCUGUCAGGAUUUGUUUCUGGAAUUCUCGGGUGCCAA`, “RBNS enrichment (R)” read 0.431.
For `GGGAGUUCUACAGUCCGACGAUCAGACUUCCUGUUAGGGGCAAUGUGUUCAUUAUAAAGGCAUAAGGACACCACACCAGCUUGUUGGUUCCUGAUGGUUUUCUUAGACUUCUCCGCUCCCCCCACAUCCCAGCUGGAAUUCUCGGGUGCCAA`, “RBNS enrichment (R)” read 0.558.

Sample 3
Target: Sal-like protein 4, full length isoform A (SALL4, Homo sapiens, UniProt Q9UJQ4, residues 1-1053)
UniProt Q9UJQ4, sequence (whole entry, looked up): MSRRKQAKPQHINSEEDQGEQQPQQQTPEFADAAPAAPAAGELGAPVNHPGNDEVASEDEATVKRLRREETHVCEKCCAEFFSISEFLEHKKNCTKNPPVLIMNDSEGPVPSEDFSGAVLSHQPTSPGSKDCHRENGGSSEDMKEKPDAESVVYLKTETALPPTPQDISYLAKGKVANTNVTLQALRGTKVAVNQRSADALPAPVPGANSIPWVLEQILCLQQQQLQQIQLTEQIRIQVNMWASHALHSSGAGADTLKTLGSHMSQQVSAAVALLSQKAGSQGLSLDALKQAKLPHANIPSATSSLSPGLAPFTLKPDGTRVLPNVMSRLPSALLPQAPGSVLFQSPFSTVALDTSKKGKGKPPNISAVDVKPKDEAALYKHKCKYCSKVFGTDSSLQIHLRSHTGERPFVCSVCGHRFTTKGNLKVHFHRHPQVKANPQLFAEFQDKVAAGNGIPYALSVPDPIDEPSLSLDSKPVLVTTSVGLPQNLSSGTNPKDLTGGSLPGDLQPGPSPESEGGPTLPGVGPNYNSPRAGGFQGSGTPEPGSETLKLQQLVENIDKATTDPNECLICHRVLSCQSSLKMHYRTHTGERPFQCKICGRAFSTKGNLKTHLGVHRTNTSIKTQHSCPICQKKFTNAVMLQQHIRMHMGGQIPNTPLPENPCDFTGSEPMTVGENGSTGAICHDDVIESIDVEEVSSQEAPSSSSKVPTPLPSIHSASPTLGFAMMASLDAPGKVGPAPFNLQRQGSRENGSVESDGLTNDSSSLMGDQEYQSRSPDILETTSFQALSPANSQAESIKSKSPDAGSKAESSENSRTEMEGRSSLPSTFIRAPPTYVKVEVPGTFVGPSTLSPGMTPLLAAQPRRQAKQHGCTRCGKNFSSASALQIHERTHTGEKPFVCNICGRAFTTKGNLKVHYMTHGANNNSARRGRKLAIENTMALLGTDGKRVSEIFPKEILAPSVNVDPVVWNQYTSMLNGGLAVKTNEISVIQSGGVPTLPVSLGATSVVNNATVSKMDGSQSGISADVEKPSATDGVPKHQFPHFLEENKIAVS
Technique: universal PBM
Form: double-stranded DNA, one strand shown
Medium: in vitro
Concentration: 600 nM
Notes: 8-mer, flanks averaged, mean of replicates
Direction: higher = stronger binding
The E-score of `TGACTAAA` is reported as 0.174.
`GGGTCACA` gave an E-score of -0.266.
The E-score of `ACACATAG` is reported as 0.129.
`ATACAAGA` has an E-score of 0.224.
`AGGCGCCC` has an E-score of -0.393.
For `CTAGTTCA`, the E-score was 0.0786.
For `AGGCGCGA`, the E-score was -0.184.
With `AGAGTGGG` the E-score was -0.101.
With `CACAGTAG` the E-score was 0.124.
`AATACGTC` gave an E-score of 0.0277.
For `GCTCACCA`, the E-score was -0.214.
For `AGCCATAT`, the E-score was 0.242.
`GGTGGTAA` has an E-score of 0.0878.
The E-score of `ACACTGAC` is reported as -0.0189.
`ACGGGTAG` has an E-score of -0.144.
With `GCAGCTGA` the E-score was -0.116.
`ATAGCTGC` has an E-score of 0.136.
For `ACATAGAC`, the E-score was 0.11.
The E-score of `ACCCTCGG` is reported as -0.272.
`CCAGGCCA` gave an E-score of -0.346.
The E-score of `AGTCCTTC` is reported as -0.209.
For `CCTTACCG`, the E-score was -0.158.
The E-score of `CTGGGAAA` is reported as -0.0408.
For `GGCCGTCA`, the E-score was -0.249.
The E-score of `AAATCTCG` is reported as 0.15.

Sample 4
Target: Histone acetyltransferase KAT6A, both winged helices, GST fusion (KAT6A, Homo sapiens, UniProt Q92794, residues 1-181)
Technique: protein binding microarray
Form: double-stranded DNA, one strand shown
Medium: in vitro
Concentration: not given
Notes: 8-mer, flanks averaged, mean of 2 arrays, mostly near background
Relative to: not given
Direction: higher = stronger binding
Residues (chain): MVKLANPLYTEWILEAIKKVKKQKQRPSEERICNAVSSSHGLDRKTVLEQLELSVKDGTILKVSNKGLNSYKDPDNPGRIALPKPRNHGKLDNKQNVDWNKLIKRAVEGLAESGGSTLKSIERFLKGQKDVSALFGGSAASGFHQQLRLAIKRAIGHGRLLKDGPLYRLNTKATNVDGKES
`CCTCTACA` gave an E-score of -0.169.
For `ATGGTCAA`, the E-score was -0.163.
`CGTGTCTC` gave an E-score of 0.0179.
`CAAGCCGG` has an E-score of 0.216.
`CGTCAGCA` has an E-score of 0.0203.
With `GAACCTCC` the E-score was -0.102.
With `ATTGCGAG` the E-score was 0.117.
`CATAGCTC` gave an E-score of -0.0824.
With `ACTACTAG` the E-score was -0.005.
With `CGCCAGCG` the E-score was 0.295.
For `GCCTACGA`, the E-score was -0.032.
With `ATGCCGGC` the E-score was 0.287.
The E-score of `ACCACAAT` is reported as -0.182.
`AGCTTATC` gave an E-score of -0.0107.
With `TCGTCCAA` the E-score was 0.125.
`GTACCTTA` has an E-score of 0.0376.
With `TAGCATCA` the E-score was -0.0973.
`GAATTTCA` gave an E-score of -0.151.
`AACTAGTA` gave an E-score of -0.0369.
`TAAGCCCA` has an E-score of -0.174.
For `ACACGAAT`, the E-score was -0.0279.
The E-score of `CGTCTCAA` is reported as 0.00632.
With `CATATAAG` the E-score was -0.127.
`GGCAATTA` gave an E-score of -0.0493.

Excerpt of the above (sample 4):
With `ACTACTAG` the E-score was -0.005.
With `ATGCCGGC` the E-score was 0.287.
`AGCTTATC` gave an E-score of -0.0107.
With `GAACCTCC` the E-score was -0.102.
For `ATGGTCAA`, the E-score was -0.163.
For `ACACGAAT`, the E-score was -0.0279.
`TAAGCCCA` has an E-score of -0.174.
`CAAGCCGG` has an E-score of 0.216.
`CGTGTCTC` gave an E-score of 0.0179.
With `TCGTCCAA` the E-score was 0.125.
With `CGCCAGCG` the E-score was 0.295.
`AACTAGTA` gave an E-score of -0.0369.
